Published values gathered from unrelated publications.
Parts stem from different laboratories: compare values within a part only. “And” joins repeats or separate records; there may be more than shown.
Chain of UniProt P35372 (whole entry, looked up): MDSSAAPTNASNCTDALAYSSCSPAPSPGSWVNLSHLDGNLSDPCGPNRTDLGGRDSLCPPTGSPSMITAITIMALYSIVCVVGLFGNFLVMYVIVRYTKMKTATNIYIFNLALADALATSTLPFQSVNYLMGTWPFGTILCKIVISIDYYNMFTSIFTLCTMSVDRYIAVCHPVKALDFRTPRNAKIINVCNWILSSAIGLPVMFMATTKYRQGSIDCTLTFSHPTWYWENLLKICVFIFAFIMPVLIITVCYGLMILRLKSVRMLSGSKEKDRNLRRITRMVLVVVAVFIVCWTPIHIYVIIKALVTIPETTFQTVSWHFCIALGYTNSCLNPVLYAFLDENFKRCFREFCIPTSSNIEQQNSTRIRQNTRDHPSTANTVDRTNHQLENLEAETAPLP

Study 1 — observed: membrane potential; technique: FLIPR membrane potential; cell line: CHO-BC cells; concentration: concentration not given; notes: first screen; reference: uninhibited control
Target: Sodium-dependent neutral amino acid transporter B(0)AT1 (SLC6A19, Homo sapiens, UniProt Q695T7)
Chain of UniProt Q695T7 (whole entry, looked up): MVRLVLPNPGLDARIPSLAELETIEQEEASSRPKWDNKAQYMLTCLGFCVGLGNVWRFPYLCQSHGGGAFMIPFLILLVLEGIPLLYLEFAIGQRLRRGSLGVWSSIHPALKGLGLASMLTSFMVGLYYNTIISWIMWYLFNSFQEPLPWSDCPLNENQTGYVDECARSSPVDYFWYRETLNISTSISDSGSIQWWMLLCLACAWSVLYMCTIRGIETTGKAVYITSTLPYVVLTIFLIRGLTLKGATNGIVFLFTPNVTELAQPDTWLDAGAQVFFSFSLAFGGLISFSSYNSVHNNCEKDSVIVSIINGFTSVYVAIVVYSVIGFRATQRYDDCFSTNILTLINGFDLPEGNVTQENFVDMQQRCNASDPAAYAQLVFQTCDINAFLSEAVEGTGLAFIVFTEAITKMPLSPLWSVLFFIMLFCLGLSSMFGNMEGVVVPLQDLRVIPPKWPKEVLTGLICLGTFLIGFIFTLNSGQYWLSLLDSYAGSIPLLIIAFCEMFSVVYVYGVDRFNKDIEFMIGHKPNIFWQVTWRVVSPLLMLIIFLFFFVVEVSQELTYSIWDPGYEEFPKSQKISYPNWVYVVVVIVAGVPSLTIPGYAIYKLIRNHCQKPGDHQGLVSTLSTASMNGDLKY
| SMILES | normalised transport activity |
| --- | --- |
| CCCCCCNC(=O)COc1cc(C)c(Cl)c(C)c1 | 0.988 and 1.1 and 1.03 and 0.959 |
| CCCNC(=O)COc1cc(C)c(Cl)c(C)c1 | 0.635 and 0.479 and 0.558 and 0.555 and 0.52 |
| Cc1cc(OCC(=O)NC(C)(C)C)cc(C)c1Cl | 1.11 and 1.05 and 1.08 and 1.06 |
| Cc1cc(OCC(=O)SC(C)C)cc(C)c1Cl | 1.33 and 1.1 and 1.29 and 1.06 |
| CCCCCCCCNC(=O)COc1cc(C)c(Cl)c(C)c1 | 1.19 and 1.04 and 0.872 and 1.1 |
| Cc1cc(OCC(=O)NCC(C)C)cc(C)c1Cl | 0.78 and 1.02 and 0.824 and 0.763 |
| CCC(C)NC(=O)COc1cc(C)c(Cl)c(C)c1 (racemic) | 0.854 and 1.18 and 1.07 and 1.02 |
| CC(C)NC(=O)COc1ccc(I)cc1 | 0.48 and 0.638 and 0.472 and 0.492 |

Study 2 — host: Crbn I391V mouse, MC-38 tumour
SMILES: Cn1cc(-c2cccc(CN3CCC4(CC3)COc3c4ccc4c3CN([C@H]3CCC(=O)NC3=O)C4=O)c2)cn1
| conditions | tumour volume |
| --- | --- |
| 30 mg/kg, day 11, together with: anti-LAG3 antibody 10 mg/kg weekly | 770 mm3 and 374 mm3 and 916 mm3 and 273 mm3 |
| 30 mg/kg, day 36, together with: anti-LAG3 antibody 10 mg/kg weekly | 2400 mm3 and 228 mm3 and 2040 mm3 |
| oral, daily, 30 mg/kg, day 15, anti-PD1 combination study | 187 mm3 and 257 mm3 and 262 mm3 and 765 mm3 and 185 mm3 |
| oral, daily, 30 mg/kg, day 19, anti-PD1 combination study | 256 mm3 and 1190 mm3 and 706 mm3 and 269 mm3 and 922 mm3 |
| 30 mg/kg, day 50, together with: anti-LAG3 antibody 10 mg/kg weekly | 2030 mm3 |
| oral, 30 mg/kg once daily, day 10 | 68.5 mm3 and 288 mm3 and 124 mm3 and 125 mm3 and 246 mm3 |
| oral, daily, 30 mg/kg, day 33, anti-PD1 combination study | 2260 mm3 and 915 mm3 and 1320 mm3 and 2410 mm3 and 1690 mm3 |
| oral, daily, 30 mg/kg, day 36, anti-PD1 combination study | 2180 mm3 and 2640 mm3 and 1230 mm3 |

Single results of other studies
| Structure (SMILES) | target or system | assay | test system | conditions | endpoint | result |
| --- | --- | --- | --- | --- | --- | --- |
| N=C(N)NCCCCCCN1CCC23c4c5ccc(O)c4OC2c2nc4ccccc4cc2CC3(O)C1C5 (stereo not drawn) | OPRM1 (Homo sapiens, UniProt P35372) | competitor, radioligand binding |  | 1 nM | normalised specific binding | 95.4% and 113% and 146% |
| C#CCN1C(=O)C(O)(C(=O)O)Oc2cc(F)ccc21 (stereo not drawn) | Arabidopsis thaliana |  | Col-0 | 25 µg/mL, seed germination | root length | 0.361 cm |

Repeated from above (study 2):
| conditions | tumour volume |
| --- | --- |
| 30 mg/kg, day 36, together with: anti-LAG3 antibody 10 mg/kg weekly | 2400 mm3 and 228 mm3 and 2040 mm3 |
| 30 mg/kg, day 50, together with: anti-LAG3 antibody 10 mg/kg weekly | 2030 mm3 |
| oral, daily, 30 mg/kg, day 33, anti-PD1 combination study | 2260 mm3 and 915 mm3 and 1320 mm3 and 2410 mm3 and 1690 mm3 |
